Assay results collected from several papers.
Compare with care: the assays were run in different laboratories.

| SMILES | system | conditions | CL/F |
| --- | --- | --- | --- |
| CCCC[C@H](NC(C)=O)C(=O)N[C@H]1CCC(=O)NC[C@@H](C(=O)N[C@@H](Cc2c[nH]c3ccccc23)C(N)=O)NC(=O)[C@H](CCCNC(=N)N)NC(=O)[C@@H](Cc2ccccc2)NC(=O)[C@H](Cc2c[nH]cn2)NC1=O | healthy human, both sexes, plasma | subcutaneous, 3.0 mg once daily, day 1, geometric mean | 17.7 L/h |
| CCOc1cc([C@@H](CS(C)(=O)=O)N2C(=O)c3cccc(NC(C)=O)c3C2=O)ccc1OC | healthy human | oral, 30 mg single dose, together with: rifampicin 600 mg i.v. infusion over 30 min | 10.5 L/h |
| OC[C@H]1O[C@@H](c2ccc(Cl)c(Cc3ccc(O[C@H]4CCOC4)cc3)c2)[C@H](O)[C@@H](O)[C@@H]1O | human reference patient | population PK typical value | 10.6 L/h |
| CC(C)NC[C@@H](C(=O)N1CCN(c2ncnc3c2[C@H](C)C[C@H]3O)CC1)c1ccc(Cl)cc1 | human, hepatic impairment Severe (Child-Pugh), plasma | oral, 100 mg single, geometric mean | 109 L/h |
| C#C[C@]1(O)CC[C@H]2[C@@H]3CCc4cc(O)ccc4[C@H]3CC[C@@]21C | human female, plasma | oral, 35 µg, day 1, together with: norethindrone 1 mg | 35.5 L/h |
| COC(=O)N[C@H](C(=O)N[C@@H](Cc1ccccc1)[C@@H](O)CN(Cc1ccc(-c2ccccn2)cc1)NC(=O)[C@@H](NC(=O)OC)C(C)(C)C)C(C)(C)C | healthy and HIV-infected humans | oral, 300 mg once daily, fed, together with: ritonavir 100 mg | 7.7 L/h |
| CCc1cc(/C(C)=N/OCc2ccc(C3CCCCC3)c(C(F)(F)F)c2)ccc1CN1CC(C(=O)O)C1 | healthy human CYP2C9*2/*3 | 0.25 mg single dose, geometric mean | 1.7 L/h |
| Cc1nc2cccc(N)c2c(=O)n1C1CCC(=O)NC1=O (stereo not shown) | healthy adult human | oral, 3 mg, geometric mean, together with: itraconazole 200 mg once daily | 4.24 L/h |
| CC[C@H](C)[C@H](NC(=O)[C@H](CC(C)C)NC(=O)[C@H](Cc1c[nH]c2ccccc12)NC(=O)[C@H](C)NC(=O)[C@@H](NC(=O)[C@H](Cc1ccccc1)NC(=O)[C@H](CC(=O)O)NC(=O)[C@H](CCCNC(=N)N)NC(=O)[C@H](C)NC(=O)[C@H](C)NC(=O)[C@H](CC(C)C)NC(=O)[C@H](C)NC(=O)[C@H](CC(=O)O)NC(=O)[C@H](CC(C)C)NC(=O)[C@@H](NC(=O)[C@@H](NC(=O)[C@H](C)NC(=O)[C@H](CC(C)C)NC(=O)[C@H](CCC(=O)O)NC(=O)[C@H](CO)NC(=O)[C@H](CO)NC(=O)[C@H](Cc1ccccc1)NC(=O)[C@@H](NC(=O)CNC(=O)[C@H](CCC(=O)O)NC(=O)CNC(=O)[C@@H](N)Cc1cnc[nH]1)[C@@H](C)O)[C@@H](C)O)[C@@H](C)CC)[C@@H](C)CC)C(=O)N[C@@H](C)C(=O)N[C@H](C(=O)N[C@@H](CCCCN)C(=O)N[C@H](C(=O)N[C@H](C(=O)N[C@@H](CC(=O)O)C(=O)N[C@@H](CCCCN)C(=O)N[C@@H](CCCCN)C(=O)N[C@@H](CCCCN)C(=O)N[C@@H](CCCCN)C(=O)N[C@@H](CCCCN)C(=O)N[C@@H](CCCCN)C(N)=O)[C@@H](C)O)[C@@H](C)CC)[C@@H](C)O | healthy humans, plasma | subcutaneous, 10 mg glepaglutide once weekly, 6 doses, day 36, geometric mean | 1600 L/h |
| CO[C@H]1C[C@@H]2CC[C@@H](C)[C@@](O)(O2)C(=O)C(=O)N2CCCC[C@H]2C(=O)O[C@H]([C@H](C)C[C@@H]2CC[C@@H](OCCO)[C@H](OC)C2)CC(=O)[C@H](C)/C=C(\C)[C@@H](O)[C@@H](OC)C(=O)[C@H](C)C[C@H](C)/C=C/C=C/C=C/1C | human, plasma | oral, 30 mg, together with: sunitinib 50 mg daily | 4.21 mL/min/kg |
| Cc1cccc(C)c1OCC(=O)N[C@@H](Cc1ccccc1)[C@@H](O)C[C@H](Cc1ccccc1)NC(=O)[C@H](C(C)C)N1CCCNC1=O | human, HIV+/HCV−, plasma | total drug, steady state, median, together with: lopinavir/ritonavir twice daily | 0.917 mL/min/kg |
| C[C@@H](c1nc(-c2ccc(C#N)cc2)cs1)[C@](O)(Cn1cncn1)c1cc(F)ccc1F | human, plasma | oral, 200 mg single dose, together with: ketoconazole 200 mg BID | 0.5 L/h |
| COc1cc2ncnc(Nc3ccc(F)c(Cl)c3)c2cc1NC(=O)/C=C/CN1CCCCC1 | human, normal hepatic function | oral, 30 mg single, geometric mean | 42.6 L/h |
| Nc1cccc2c1C(=O)N(C1CCC(=O)NC1=O)C2=O (stereo not shown) | healthy humans, plasma | 4 mg, geometric mean, together with: fluvoxamine | 3.4 L/h |
| CC[C@H](C)[C@@H]1NC(=O)[C@H](CCCNC(=N)N)NC(=O)[C@H](CC(=O)O)NC(=O)[C@H](CC(C)C)NC(=O)[C@H](CCCCN)NC(=O)[C@H](CC(C)C)NC(=O)CNC(=O)[C@H](Cc2ccccc2)NC(=O)[C@@H](NC(=O)CNC(=O)[C@H](CCCCN)NC(=O)[C@H](CO)NC(=O)[C@H](CC(C)C)NC(=O)CNC(=O)[C@H](CCCCN)NC(=O)[C@H](CCCCN)NC(=O)[C@H](CC(N)=O)NC(=O)[C@H](C)NC(=O)CNC(=O)[C@H](CCCCN)NC(=O)[C@H](Cc2ccc(O)cc2)NC(=O)[C@H](CCCCN)NC(=O)[C@H](CCCNC(=N)N)NC(=O)[C@H](C)NC(=O)[C@H](CC(N)=O)NC(=O)[C@@H]2CCCN2C(=O)[C@H](Cc2c[nH]cn2)NC(=O)[C@H](CCC(=O)O)NC(=O)[C@H](CCC(N)=O)NC(=O)CNC(=O)[C@@H]2CCCN2)CSSC[C@@H](C(=O)O)NC(=O)CNC(=O)[C@H](CC(C)C)NC(=O)CNC(=O)[C@H](CO)NC(=O)[C@H](CCSC)NC(=O)[C@H](CO)NC(=O)CNC1=O | human, plasma | subcutaneous, 15 µg/kg once daily, week 26 | 85.2 mL/min/kg |
| CNC(=O)c1ccc(-c2cnc3ncc(Cc4ccc5ncccc5c4)n3n2)cc1F | healthy human subjects, plasma | oral, 200 mg, geometric mean, together with: itraconazole 200 mg/day | 26.8 L/h |

Some of these lines once more:
| SMILES | system | conditions | CL/F |
| --- | --- | --- | --- |
| COC(=O)N[C@H](C(=O)N[C@@H](Cc1ccccc1)[C@@H](O)CN(Cc1ccc(-c2ccccn2)cc1)NC(=O)[C@@H](NC(=O)OC)C(C)(C)C)C(C)(C)C | healthy and HIV-infected humans | oral, 300 mg once daily, fed, together with: ritonavir 100 mg | 7.7 L/h |
| C#C[C@]1(O)CC[C@H]2[C@@H]3CCc4cc(O)ccc4[C@H]3CC[C@@]21C | human female, plasma | oral, 35 µg, day 1, together with: norethindrone 1 mg | 35.5 L/h |
| Cc1cccc(C)c1OCC(=O)N[C@@H](Cc1ccccc1)[C@@H](O)C[C@H](Cc1ccccc1)NC(=O)[C@H](C(C)C)N1CCCNC1=O | human, HIV+/HCV−, plasma | total drug, steady state, median, together with: lopinavir/ritonavir twice daily | 0.917 mL/min/kg |
